Assay results collected from several papers.
Lines come from different studies, so protocols differ. ± marks the error that the study gave.

SMILES | target or system | assay | system | setting | scale | measurement | value
COc1c(O)cc2c(c1O)C(=O)c1c(cc(C)c(O)c1OC)C2=O | HepaRG co-cultured with HK-2 | MTT | – | 33.33 µM, 48 h | reference: untreated control | cell viability | 103 ± 13.4%
NCCCOc1cc(NC(=O)c2cccc(C(=O)Nc3cc(OCCCN)c4ccccc4n3)n2)nc2ccccc12 | double-stranded DNA | FRET melting | – | 1 µM, pH 7.4, 60 mM potassium, with: oligonucleotide 200 nM | – | delta Tm | 0.1 ± 0.2 K
C[C@H]1C[C@H]2CSC(N)=N[C@@]2(c2nc(NC(=O)c3ccc(OC(F)F)cn3)cs2)CO1 | – | – | healthy adults, fed, plasma | oral, 200 mg single dose, 8 h | reference: baseline, placebo-adjusted | plasma Aβx-40 change | -62%
CC(C)(C)OC(=O)Nc1ccc(-c2cc(C(=O)NCCCCCCC(=O)NO)no2)cc1 | OCI-Ly1 | – | – | 0.1 µM, 120 h | – | viability | 97.5%
O=C(O)c1cc(O)c2c(c1)C(=O)c1cccc(O[C@@H]3O[C@H](CO)[C@@H](O)[C@H](O)[C@H]3O)c1C2=O | HepaRG co-cultured with HK-2 | MTT | – | 33.33 µM, 48 h | reference: untreated control | cell viability | 71.8 ± 9.93%
O=C(/C=C/c1ccc(CN(CCO)CCc2c[nH]c3ccccc23)cc1)NO | OCI-Ly1 | – | – | 0.1 µM, 120 h | – | viability | 36.6%
CN(C)C(=O)CCc1nc(-c2ccccc2)c(-c2ccccc2)o1 | COS-7 | – | – | 100 µM, 24 h, 0.1% DMSO, unit not given | reference: control | confluence | 0.86 ± 0.06
NCCCOc1cc(NC(=O)c2cc(Cl)cc(C(=O)Nc3cc(OCCCN)c4ccccc4n3)n2)nc2ccccc12 | human telomeric G-quadruplex DNA | FRET melting | – | 1 µM, pH 7.4, with: 60 mM potassium | – | ΔTm | 35.5 ± 0.7 K
CC(C)NCC(O)c1ccc(O)c(O)c1 (stereo not shown) | – | – | ventricular cardiomyocytes, C57BL/6 mouse | dose not given, 0.464 s | – | sarcomere length | 1.65 µm
c1coc(-c2n[nH]cc2-c2ccnc3ccccc23)c1 | KIN28 (Candida albicans) | kinase binding, MIB/MS competition | Candida albicans lysate | 10 µM | reference: DMSO | log2 fold change | -0.34
O=C(O)CNC(=O)Cc1ccccc1 | – | – | ventricular cardiomyocytes, C57BL/6 mouse | dose not given, 0.528 s | – | sarcomere length | 1.62 µm
CC[C@H](C)n1cc(C)c2c(C(=O)NCc3c(C)cc(C)[nH]c3=O)cc(-c3ccc(N4CCNCC4)nc3)cc21 | OCI-Ly1 | – | – | 1 µM, 120 h | – | viability | 130%
O=C(Nc1cc(OCCN2CCCC2)c2ccccc2n1)c1cc(OCc2ccc(F)cc2)cc(C(=O)Nc2cc(OCCN3CCCC3)c3ccccc3n2)n1 | double-stranded DNA | FRET melting | – | 1 µM, pH 7.4, 60 mM potassium, with: oligonucleotide 200 nM | – | delta Tm | 0 ± 0.2 K
Cn1cc(-c2ccc(-c3cncc(Cl)c3N3CCC4(CCNC4=O)CC3)cc2)cn1 | COLO 205 | gene expression, microarray, refers to: CRYBB1 mRNA | – | concentration not given, 6 h | reference: untreated cells | log2 fold change | -2.98
NC(=O)c1cnc2[nH]ccc2c1N[C@@H]1[C@@H]2CC3C[C@H]1C[C@@](O)(C3)C2 | – | flow cytometry, refers to: CD8+ memory T cells | Japanese healthy subjects, peripheral blood | oral, 30 mg twice daily, day 4 | – | change from baseline | 0.52%
CCCc1cc(C)[nH]c(=O)c1CNC(=O)c1cc(-c2ccc(N3CCN(C(C)C)CC3)nc2)cc2c1cnn2C(C)C | OCI-Ly1 | – | – | 0.1 µM, 120 h | – | viability | 120%
Oc1ccccc1-c1n[nH]cc1-c1ccnc2ccccc12 | YPK1 (Candida albicans) | kinase binding, MIB/MS competition | Candida albicans lysate | 1 µM | reference: DMSO | log2 fold change | -0.06
CCCc1cc(C)[nH]c(=O)c1CNC(=O)c1cc(-c2ccnc(N3CCN(C)CC3)c2)cc2c1cnn2C(C)C | OCI-Ly1 | – | – | 0.1 µM, 120 h | – | viability | 92.9%
COC(=O)c1cn(C)c2ccc(-c3cccnc3)cc12 | COS-7 | – | – | 10 µM, 24 h, 0.1% DMSO, unit not given | reference: vehicle control | necrotic cells | 0.54 ± 0.21

Repeated from above:
SMILES | target or system | assay | system | setting | scale | measurement | value
c1coc(-c2n[nH]cc2-c2ccnc3ccccc23)c1 | KIN28 (Candida albicans) | kinase binding, MIB/MS competition | Candida albicans lysate | 10 µM | reference: DMSO | log2 fold change | -0.34
Cn1cc(-c2ccc(-c3cncc(Cl)c3N3CCC4(CCNC4=O)CC3)cc2)cn1 | COLO 205 | gene expression, microarray, refers to: CRYBB1 mRNA | – | concentration not given, 6 h | reference: untreated cells | log2 fold change | -2.98
Oc1ccccc1-c1n[nH]cc1-c1ccnc2ccccc12 | YPK1 (Candida albicans) | kinase binding, MIB/MS competition | Candida albicans lysate | 1 µM | reference: DMSO | log2 fold change | -0.06
